Literature values, collected from citations in different studies.
Positions of bridges follow the written chain, without caps; N, C: chain ends. No end group written: not given here.
B1: camrelizumab; V domains shown; sequence looked up; VH EVQLVESGGGLVQPGGSLRLSCAASGFTFSSYMMSWVRQAPGKGLEWVATISGGGANTYYPDSVKGRFTISRDNAKNSLYLQMNSLRAEDTAVYYCARQLYYFDYWGQGTTVTVSS; VL DIQMTQSPSSLSASVGDRVTITCLASQTIGTWLTWYQQKPGKAPKLLIYTATSLADGVPSRFSGSGSGTDFTLTISSLQPEDFATYYCQQVYSIPWTFGGGTKVEIK
B2: CCL1; sequence looked up; chain KSMQVPFSRCCFSFAEQEIPLRAILCYRNTSSICSNEGLIFKLKRGKEACALDTVGWVQRHRKMLRHCPSKRK

Substance | target | test | test system | conditions | how to read | endpoint | value
HHLGGAKQAGDV | integrin αIIbβ3 | AFM dynamic force spectroscopy | peptide | – | – | dissociation rate constant | ~48 s⁻¹
B1 (camrelizumab) | PD-1 (human) | – | antibody, human, peripheral blood T cells | intravenous, 200-400 mg single infusion | – | receptor occupancy duration | ≥ 28 days
CHPQGPPC (disulfide 1-8 (inferred)) (disulfide) | streptavidin | – | – | – | – | dissociation rate constant | 0.2 s⁻¹
Relaxin | RXFP1 | measured: β-arrestin 2, GFP-tagged | – | 1 µM, 60 min | – | β-arrestin-2 translocation | no effect
fibrinogen | integrin αIIbβ3 | laser trap | – | added: 50 pN force | – | bond lifetime | 0.8 s
hepcidin | ferroportin | ferroportin internalization, cell-based | – | – | – | EC50 | 67.8 nM
B2 (CCL1) | CCR8 F290A mutant | IP accumulation, agonist | – | – | – | EC50 | 6 nM
GIP(1-30), human | GIP receptor | – | CHO | – | reference: GIP(1-42) | IC50 fold decrease | 11 fold
